Earlier results as cited in several papers.
Compare with care: the assays were run in different laboratories. “And” joins repeats or separate records; there may be more than shown. ± marks the error that the study gave.

For `O=C(NCc1ccc(F)cc1F)c1cn2ccn(CCCCO)c(=O)c2c(O)c1=O`, the EC50 was 30.7 nM and > 30 nM (HIV-1 integrase S230N; viral replication; HIV-1; single-round vector).
`CC(=O)N[C@@H](CCCNC(=N)N)C(=O)N[C@@H](CCCNC(=N)N)C(=O)N[C@@H](Cc1ccc2ccccc2c1)C(=O)N[C@H]1CSSC[C@@H](C(=O)N[C@@H](CCCNC(=N)N)C(N)=O)NC(=O)[C@H](CCCNC(N)=O)NC(=O)[C@H](CCCNC(=N)N)NC(=O)[C@H](Cc2ccc(O)cc2)NC(=O)[C@@H]2CCCN2C(=O)[C@@H](CCCNC(N)=O)NC(=O)[C@H](CCCCN)NC(=O)[C@H](CCCNC(N)=O)NC(=O)[C@H](Cc2ccc(O)cc2)NC1=O` gave an EC50 of 29 nM (HIV; viral replication).
The IC50 of `NCC(CCC(N)C(=O)O)CC1OC(n2cnc3c(N)ncnc32)C(O)C1O` (stereo not shown) is reported as 3400 nM (SARS-CoV-2 nsp16 methyltransferase; enzyme activity, inhibitor).
`C[n+]1cn(C2OC(COP(=O)(O)OP(=O)(O)OP(=O)(O)OCC3OC(n4cnc5c(=O)[nH]c(N)nc54)C(O)C3O)C(O)C2O)c2nc(N)[nH]c(=O)c21` (stereo not shown) — result for enzyme activity: “inhibited” (vaccinia virus D10 MBP fusion; inhibitor; concentration not given, single turnover).
`O=C1[C@@H](Oc2ccccc2)[C@@H](c2ccc(Cl)cc2)N1CCCn1cnc2c(NCc3ccccc3)ncnc21` has an EC50 of 17100 nM (Chikungunya virus; viral replication).
With `Nc1c(C(=O)NCc2ccc(F)cc2F)c(=O)n(O)c2ncccc12` the EC50 was 6.4 ± 2.3 nM (HIV-1; viral replication; integrase R263K mutant).
The selectivity index of `CCc1nc2c(nnn2-c2cccc(OC(C)C)c2)c(=O)[nH]1` is reported as greater than 600 (Chikungunya virus; reference: CC50 over EC50).
`Clc1ccc(CN2CCCC3=CC4CC(CN5CCCCC45)C32)cc1Cl` (stereo not shown) gave an EC50 of 4800 nM (Ebola virus; viral infection).
`C[n+]1cn(C2OC(COP(=O)(O)OP(=O)(O)OP(=O)(O)O)C(O)C2O)c2nc(N)[nH]c(=O)c21` (stereo not shown): enzyme activity “inhibited” (vaccinia virus D10 MBP fusion; inhibitor; concentration not given, single turnover).
`C#Cc1cn(C2OC(CSCCC(N)C(=O)O)C(O)C2O)c2ncnc(N)c12` (stereo not shown) has an IC50 of 1200 nM (SARS-CoV-2 nsp16 methyltransferase; enzyme activity, inhibitor).
`CC(C)(C#Cc1ccc(-c2ccc(Cl)c3c(NS(C)(=O)=O)nn(CC(F)(F)F)c23)c([C@H](Cc2ccccc2)NC(=O)Cn2nc(C(F)(F)F)c3c2C(F)(F)[C@@H]2C[C@H]32)n1)S(C)(=O)=O` gave an EC50 of 444 nM (HIV-1; viral replication).
`CC[C@H](C)[C@H](NC(=O)[C@H](Cc1ccc(O)cc1)NC(=O)[C@H](Cc1c[nH]cn1)NC(=O)[C@@H]1CSSC[C@H](NC(=O)[C@@H]2CCCN2C(=O)[C@H](CCCNC(=N)N)NC(=O)[C@H](CC(C)C)NC(=O)[C@H](CC(=O)O)NC(=O)[C@@H]2CCCN2C(=O)[C@H](CCCCN)NC(=O)CNC(=O)CN)C(=O)N[C@@H](Cc2ccc(O)cc2)C(=O)N2CCC[C@H]2C(=O)N2CCC[C@H]2C(=O)N1)C(=O)N1CCC[C@H]1C(=O)N[C@@H](CCCNC(=N)N)C(=O)N1CCC[C@H]1C(=O)N[C@@H](CCCCN)C(=O)N1CCC[C@H]1C(=O)N[C@@H](CCCNC(=N)N)C(=O)O` gave an LD50 of 0.58 mg/kg (mouse).
`Oc1cc(O)c2c(c1)OC(c1ccc(O)c(O)c1)C(O)C2c1c(O)cc(O)c2c1OC(c1ccc(O)c(O)c1)C(O)C2` (stereo not shown): inhibition “inactive” (Replicase polyprotein 1ab, papain-like protease (rep, Severe acute respiratory syndrome coronavirus 2, UniProt P0DTD1); enzyme activity; concentration not given, with: DTT).
The inhibition of `CCOC(=O)COc1nc(SCC(=O)OCC)nc2ccccc12` is reported as 58.4% (SARS-CoV-2 RdRp; 10 µM).
The EC50 of `Cc1cc(C#N)cc(C)c1Oc1nc(NC2CCN(Cc3ccc(S(N)(=O)=O)cc3)CC2)nc2ccsc12` is reported as 2.9 nM (HIV-1; viral cytopathic effect, MTT; MT-4, K103N mutant).
`CC[C@H](C)[C@@H]1NC(=O)[C@H](CC(=O)O)NC(=O)[C@H]([C@@H](C)O)NC(=O)[C@@H]2CSSC[C@@H]3NC(=O)[C@H](CC(C)C)NC(=O)[C@H](CC(N)=O)NC(=O)[C@H](CC(C)C)NC(=O)[C@H](CCCNC(=N)N)NC(=O)[C@H](Cc4ccc(O)cc4)NC(=O)[C@H](CCCCN)NC(=O)[C@H](CCSC)NC(=O)[C@H](CO)NC(=O)[C@H]([C@@H](C)O)NC(=O)[C@H](CCCNC(=N)N)NC(=O)[C@H](CSSC[C@H](NC(=O)[C@H]([C@@H](C)O)NC(=O)[C@H](CCCCN)NC(=O)[C@H](CCCNC(=N)N)NC3=O)C(=O)NCC(=O)N[C@@H](CO)C(=O)N[C@H](C(=O)O)CSSC[C@H](NC(=O)[C@@H](NC(=O)[C@@H](N)CCCNC(=N)N)[C@@H](C)O)C(=O)N[C@@H](CCCCN)C(=O)N[C@@H](CC(=O)O)C(=O)N[C@@H](CC(C)C)C(=O)N[C@@H]([C@@H](C)CC)C(=O)N3CCC[C@H]3C(=O)N[C@@H](C(C)C)C(=O)N[C@@H](CO)C(=O)N[C@@H](CCC(=O)O)C(=O)N2)NC(=O)[C@H](CCCNC(=N)N)NC1=O` has a Ki of roughly 1 nM (KcsA-Shaker channel; inhibitor).

A few entries again:
`C[n+]1cn(C2OC(COP(=O)(O)OP(=O)(O)OP(=O)(O)OCC3OC(n4cnc5c(=O)[nH]c(N)nc54)C(O)C3O)C(O)C2O)c2nc(N)[nH]c(=O)c21` (stereo not shown) — result for enzyme activity: “inhibited” (vaccinia virus D10 MBP fusion; inhibitor; concentration not given, single turnover).
